Results gathered from unrelated publications.
Each line is one published result; not all experiments were run side by side. pKd: −log10 of the molar value.
Chain of UniProt P00519 (whole entry, unmodified, looked up): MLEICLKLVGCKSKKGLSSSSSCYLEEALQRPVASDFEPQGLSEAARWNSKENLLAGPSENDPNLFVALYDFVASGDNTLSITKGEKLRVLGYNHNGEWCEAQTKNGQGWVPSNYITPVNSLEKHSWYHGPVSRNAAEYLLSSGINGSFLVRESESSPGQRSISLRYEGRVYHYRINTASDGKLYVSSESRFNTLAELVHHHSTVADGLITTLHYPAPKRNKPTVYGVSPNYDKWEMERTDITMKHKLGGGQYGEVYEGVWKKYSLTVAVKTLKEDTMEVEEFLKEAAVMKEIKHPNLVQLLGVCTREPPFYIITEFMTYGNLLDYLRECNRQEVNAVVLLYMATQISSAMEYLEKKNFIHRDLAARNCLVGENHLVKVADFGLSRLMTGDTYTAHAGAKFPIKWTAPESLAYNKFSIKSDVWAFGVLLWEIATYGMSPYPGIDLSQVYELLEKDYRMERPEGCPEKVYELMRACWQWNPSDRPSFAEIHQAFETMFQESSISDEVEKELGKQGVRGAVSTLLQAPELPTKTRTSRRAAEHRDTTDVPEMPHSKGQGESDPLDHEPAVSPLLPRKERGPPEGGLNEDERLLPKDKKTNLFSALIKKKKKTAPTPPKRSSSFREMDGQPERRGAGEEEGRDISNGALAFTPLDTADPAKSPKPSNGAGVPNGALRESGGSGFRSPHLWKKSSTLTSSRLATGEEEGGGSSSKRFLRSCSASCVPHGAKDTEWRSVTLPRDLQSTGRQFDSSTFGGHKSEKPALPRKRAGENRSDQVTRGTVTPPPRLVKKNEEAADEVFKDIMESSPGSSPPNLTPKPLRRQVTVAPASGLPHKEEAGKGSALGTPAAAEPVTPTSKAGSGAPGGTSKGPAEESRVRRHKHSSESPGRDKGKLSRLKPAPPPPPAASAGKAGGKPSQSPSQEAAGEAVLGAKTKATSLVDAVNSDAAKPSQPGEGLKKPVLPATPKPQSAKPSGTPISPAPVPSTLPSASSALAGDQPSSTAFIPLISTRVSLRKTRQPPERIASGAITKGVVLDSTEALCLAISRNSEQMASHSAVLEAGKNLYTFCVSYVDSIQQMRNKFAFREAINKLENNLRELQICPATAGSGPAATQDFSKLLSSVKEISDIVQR
Chain of UniProt P48729 (whole entry, looked up): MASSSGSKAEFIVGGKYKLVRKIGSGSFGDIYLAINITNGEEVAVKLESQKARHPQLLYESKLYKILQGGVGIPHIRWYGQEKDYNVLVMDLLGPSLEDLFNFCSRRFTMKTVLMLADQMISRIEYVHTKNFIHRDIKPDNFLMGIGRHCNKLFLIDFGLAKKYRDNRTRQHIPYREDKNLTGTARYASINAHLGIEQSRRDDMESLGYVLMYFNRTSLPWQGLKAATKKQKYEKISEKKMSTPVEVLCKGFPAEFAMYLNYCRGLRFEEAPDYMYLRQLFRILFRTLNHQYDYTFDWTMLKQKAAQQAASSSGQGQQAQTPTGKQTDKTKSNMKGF
Chain of UniProt P45984 (whole entry, looked up): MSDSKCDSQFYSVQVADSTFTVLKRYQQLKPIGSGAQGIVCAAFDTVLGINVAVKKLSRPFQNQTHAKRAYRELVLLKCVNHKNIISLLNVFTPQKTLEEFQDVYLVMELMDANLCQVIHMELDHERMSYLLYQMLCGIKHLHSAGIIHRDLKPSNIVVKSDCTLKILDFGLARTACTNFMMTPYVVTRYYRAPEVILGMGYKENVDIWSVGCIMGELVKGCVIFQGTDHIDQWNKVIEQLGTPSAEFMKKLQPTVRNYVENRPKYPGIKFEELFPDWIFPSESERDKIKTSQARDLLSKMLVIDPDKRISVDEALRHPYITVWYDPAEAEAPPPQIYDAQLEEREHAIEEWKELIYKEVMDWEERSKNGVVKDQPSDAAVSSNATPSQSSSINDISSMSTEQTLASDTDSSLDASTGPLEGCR
Chain of UniProt P48730 (whole entry, looked up): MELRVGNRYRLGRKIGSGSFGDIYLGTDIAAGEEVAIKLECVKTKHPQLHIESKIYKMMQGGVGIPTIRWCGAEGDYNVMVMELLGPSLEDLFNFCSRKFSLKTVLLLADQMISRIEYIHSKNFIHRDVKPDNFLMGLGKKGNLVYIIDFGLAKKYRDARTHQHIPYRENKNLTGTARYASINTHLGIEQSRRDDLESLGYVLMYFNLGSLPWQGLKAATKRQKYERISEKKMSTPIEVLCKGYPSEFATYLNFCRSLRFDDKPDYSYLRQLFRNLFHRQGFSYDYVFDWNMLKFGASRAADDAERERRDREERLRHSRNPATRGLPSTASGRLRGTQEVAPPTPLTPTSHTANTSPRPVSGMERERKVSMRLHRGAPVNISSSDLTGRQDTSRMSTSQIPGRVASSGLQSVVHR
Chain of UniProt P33981 (whole entry, looked up): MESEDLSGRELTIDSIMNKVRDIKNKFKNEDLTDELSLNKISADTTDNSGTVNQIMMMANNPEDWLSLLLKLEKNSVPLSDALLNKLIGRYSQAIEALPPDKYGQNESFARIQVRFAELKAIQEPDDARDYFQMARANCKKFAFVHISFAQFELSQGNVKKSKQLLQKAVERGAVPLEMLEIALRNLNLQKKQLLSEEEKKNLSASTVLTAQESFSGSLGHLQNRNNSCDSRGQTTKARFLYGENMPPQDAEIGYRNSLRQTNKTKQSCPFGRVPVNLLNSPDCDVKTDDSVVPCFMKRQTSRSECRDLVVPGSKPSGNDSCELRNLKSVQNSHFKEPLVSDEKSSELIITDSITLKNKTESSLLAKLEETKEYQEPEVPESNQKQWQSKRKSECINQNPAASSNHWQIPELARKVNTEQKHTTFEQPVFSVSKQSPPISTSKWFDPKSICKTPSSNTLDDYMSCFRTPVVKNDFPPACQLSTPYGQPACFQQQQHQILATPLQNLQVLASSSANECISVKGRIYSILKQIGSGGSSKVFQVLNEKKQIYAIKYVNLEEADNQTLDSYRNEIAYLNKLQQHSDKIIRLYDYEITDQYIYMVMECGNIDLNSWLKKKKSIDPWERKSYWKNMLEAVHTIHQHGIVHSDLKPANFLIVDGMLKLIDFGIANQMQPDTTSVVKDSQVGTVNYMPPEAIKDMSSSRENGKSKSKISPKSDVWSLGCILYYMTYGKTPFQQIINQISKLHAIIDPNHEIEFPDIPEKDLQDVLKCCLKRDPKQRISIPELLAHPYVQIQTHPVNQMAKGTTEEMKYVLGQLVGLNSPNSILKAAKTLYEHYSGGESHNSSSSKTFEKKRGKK

Structure (SMILES) | target or system | assay | system | conditions | quantity | result
COc1cccc(-c2n[nH]c(SCc3ccccn3)n2)c1OC | – | – | male Sprague-Dawley rat, plasma | intravenous, 1 mg/kg, 1 h, single dose | concentration | 273 ng/mL
NC(=O)c1ccc(N)cc1Cl | Casein kinase I isoform delta (CSNK1D, Homo sapiens, UniProt P48730) | binding, SPR | – | – | pKd | < 4.30
C=CC(=O)N1CCC(COCC(=O)N2CCN(c3nc(-c4cnc(N)nc4C(F)F)nc(N4CCOC[C@@H]4C)n3)CC2)CC1 | Tyrosine-protein kinase ABL1, phosphorylated (ABL1, Homo sapiens, UniProt P00519, F317I) | binding, competition with immobilised ligand | – | 1 µM | remaining binding | 100%
[2H]c1c([2H])c([C@]2([2H])CCCN2C(=O)C(C)(C)Oc2ccc3cn[nH]c3c2)c([2H])c([2H])c1C([2H])([2H])[2H] | Dual specificity protein kinase TTK (TTK, Homo sapiens, UniProt P33981) | binding, competition with immobilised ligand | – | 1 µM | remaining binding | 100%
Cc1noc(NS(=O)(=O)c2ccc(N=NN(O)c3ccccc3)cc2)c1C | – | DPPH scavenging, absorbance | – | 60 µg/mL | inhibition | 10.9%
Cc1cc([C@@H](C)Nc2ccccc2C(=O)O)c2nc(N3CCC(F)(F)CC3)c(C#N)c(=O)n2c1 | Mitogen-activated protein kinase 9 (MAPK9, Homo sapiens, UniProt P45984) | binding, competition with immobilised ligand | – | 10 µM | remaining binding | 100%
Cc1cccc(N(O)N=Nc2ccc(S(=O)(=O)Nc3nccs3)cc2)c1 | – | DPPH scavenging, absorbance | – | 300 µg/mL | inhibition | 39%
N#Cc1cc(I)c(O)c([N+](=O)[O-])c1 | Casein kinase I isoform alpha (CSNK1A1, Homo sapiens, UniProt P48729) | binding, SPR | – | – | pKd | < 4.30

Repeated from above:
Structure (SMILES) | target or system | assay | system | conditions | quantity | result
C=CC(=O)N1CCC(COCC(=O)N2CCN(c3nc(-c4cnc(N)nc4C(F)F)nc(N4CCOC[C@@H]4C)n3)CC2)CC1 | Tyrosine-protein kinase ABL1, phosphorylated (ABL1, Homo sapiens, UniProt P00519, F317I) | binding, competition with immobilised ligand | – | 1 µM | remaining binding | 100%
